Measured values gathered from unrelated publications.
Compare with care: the assays were run in different laboratories. ± marks the error that the study gave.

SMILES	cell line	assay	setting	viability
CC(=O)N[C@@H](CC(C)C)C(=O)N[C@H](C(=O)N[C@@H](Cc1ccccc1)C(=O)N[C@H]1CC(=O)NCCCC[C@@H](C(=O)N[C@@H](CCC(N)=O)C(=O)N[C@@H](CC(C)C)C(=O)N[C@H](C(=O)N[C@@H](CO)C(=O)NCCOCCOCC(=O)N[C@@H](CCCCN)C(N)=O)[C@@H](C)O)NC(=O)[C@H](Cc2c[nH]c3ccccc23)NC(=O)[C@H](Cc2ccc(O)cc2)NC(=O)[C@H](Cc2c[nH]cn2)NC1=O)[C@@H](C)O	SJSA-1	MTT	concentration not given	no effect
CC[C@H](C)[C@H](NC(=O)[C@H](CCC(=O)O)NC(=O)[C@@H](NC(=O)[C@H](CCC(N)=O)NC(=O)[C@@H](N)CCCCN)[C@@H](C)CC)C(=O)N[C@@H](CCCCN)C(=O)N[C@@H](CCCCN)C(=O)N[C@@H](Cc1ccccc1)C(=O)N[C@@H](CCCCN)C(=O)O	mouse cardiomyocytes		250 µM, 30 min, pH 6.5, added: 120 min OGD/acidosis	14.6%
Clc1ccc(Nc2c3c(nc4ccccc24)CCCC3)cc1	SH-SY5Y	MTT	50 µM, 1 h pretreatment, 10% FBS, added: H2O2	39.3 ± 1.66%
COC(=O)C1=CO[C@@H](OC(C)=O)[C@@H]2C(Cn3cc(-c4ccc(F)cc4)nn3)=CC[C@H]12	SK-N-SH	neuroprotection, MTT	0.15 µM, 24 h, added: 250 µM H2O2	64.9 ± 1.2%
CC(C)C[C@@H](NC(=O)CCNc1ccc([N+](=O)[O-])c2nonc12)C(=O)N[C@H](CC(C)C)C(=O)N[C@H](CC(C)C)C(=O)N[C@H](CC(C)C)C(=O)N[C@H](Cc1ccc(OP(=O)(O)O)cc1)C(=O)O	HS5	MTT	200 µM, 24 h	> 60%
COC(=O)C1=CO[C@@H](OC(C)=O)[C@@H]2C(Cn3cc(CCO[Si](c4ccccc4)(c4ccccc4)C(C)(C)C)nn3)=CC[C@H]12	SK-N-SH	neuroprotection, MTT	0.6 µM, 24 h, added: 250 µM H2O2	53.2 ± 0.5%
COc1ccnc(Nc2c3c(nc4ccccc24)CCC(C)C3)c1 (stereo not drawn)	SH-SY5Y	MTT	50 µM, 1 h pretreatment, 10% FBS, added: H2O2	41.2 ± 3.32%
COC(=O)C1=CO[C@@H](OC(C)=O)[C@@H]2C(Cn3cc(COCc4ccccc4)nn3)=CC[C@H]12	SK-N-SH	neuroprotection, MTT	0.3 µM, 24 h, added: 250 µM H2O2	67.1 ± 0.2%
c1cc(Nc2c3c(nc4ccccc24)CCCC3)c2cccnc2c1	SH-SY5Y	MTT	50 µM, 1 h pretreatment, 10% FBS, added: H2O2	29.3 ± 0.98%

Repeated from above:
SMILES	cell line	assay	setting	viability
COC(=O)C1=CO[C@@H](OC(C)=O)[C@@H]2C(Cn3cc(CCO[Si](c4ccccc4)(c4ccccc4)C(C)(C)C)nn3)=CC[C@H]12	SK-N-SH	neuroprotection, MTT	0.6 µM, 24 h, added: 250 µM H2O2	53.2 ± 0.5%
